# Experimental data pooled from the literature.
# Compare with care: the assays were run in different laboratories.
Compound,organism,test,test system,conditions,quantity,result
CC(=O)N[C@@H](CCCCN)C(=O)N[C@@H](CC(C)C)C(=O)N[C@@H](CC(C)C)C(=O)N[C@@H](CCCCN)C(=O)N[C@@H](CC(C)C)C(=O)N[C@@H](CC(C)C)C(=O)N[C@@H](CCCCN)C(=O)N[C@@H](CCCCN)C(=O)N1CCC[C@H]1C(=O)N[C@@H](CC(C)C)C(=O)N[C@@H](CCCCN)C(=O)N[C@@H](CC(C)C)C(=O)N[C@@H](CC(C)C)C(N)=O,Klebsiella pneumoniae,broth microdilution,ATCC 700603,"18 h, 37 °C, compound alone",MIC,> 80 µM
CCC(=O)N1CCN(C(=O)c2ccccc2)CC1,Plasmodium falciparum,,3D7,,IC50,3.98 µM
CC[C@H](C)[C@H](NC(=O)[C@H](Cc1ccccc1)NC(=O)[C@@H](NC(=O)[C@H](Cc1c[nH]c2ccccc12)NC(=O)[C@@H]1CCCN1C(=O)[C@@H](NC(=O)[C@H](C)N)[C@@H](C)CC)[C@@H](C)CC)C(=O)N[C@@H](Cc1ccccc1)C(=O)N[C@@H](CCCNC(=N)N)C(=O)N[C@@H](CC(C)C)C(=O)N[C@@H](CC(C)C)C(=O)N[C@@H](CCCNC(=N)N)C(=O)N[C@@H](CCCCN)C(=O)NCC(N)=O,Klebsiella pneumoniae,broth microdilution,ATCC 700603,"18 h, 37 °C",MIC,15 µM
CN(C)c1cc(NC(=O)CNC(C)(C)C)c(O)c2c1C[C@H]1C[C@H]3[C@H](N(C)C)C(O)=C(C(N)=O)C(=O)[C@@]3(O)C(O)=C1C2=O,Klebsiella pneumoniae,broth microdilution,ATCC 43816 acrAB overexpressor,,MIC,< 0.5 µg/mL
CNCCC=C1c2ccccc2CCc2ccccc21,Plasmodium falciparum,,7G8,,IC50,7.94 µM
CC[C@H](C)[C@H](N)C(=O)N[C@@H](CC(C)C)C(=O)NCC(=O)N[C@H](CCCCN)C(=O)N[C@H](C(=O)N[C@@H](Cc1c[nH]c2ccccc12)C(=O)N[C@@H](CCCCN)C(=O)NCC(=O)N[C@H](C(=O)N[C@@H](CCCCN)C(=O)N[C@@H](CC(=O)O)C(=O)N[C@H](C(=O)N[C@@H](CC(C)C)C(N)=O)[C@@H](C)CC)[C@@H](C)CC)[C@@H](C)CC,Klebsiella pneumoniae,broth microdilution,"ATCC 27736, Mueller-Hinton broth","16 h, 37 °C",MIC,100 µM
Cc1ncc2c(c1O)C(=O)C1=C(O)[C@]3(O)C(=O)C(C(N)=O)=C(O)[C@@H](N(C)C)[C@@H]3C[C@@H]1C2.Cl.Cl,Klebsiella pneumoniae,,tet(A)-carrying,,MIC,> 32 µg/mL
CC(=O)N[C@@H](CCCCN)C(=O)N[C@@H](CCCCN)C(=O)N[C@@H](CC(C)C)C(=O)N[C@@H](CC(C)C)C(=O)N[C@@H](CCCCN)C(=O)N[C@@H](CC(C)C)C(=O)N[C@@H](CC(C)C)C(=O)N[C@@H](CCCCN)C(=O)N[C@@H](CCCCN)C(=O)N1CCC[C@H]1C(=O)N[C@@H](CC(C)C)C(=O)N[C@@H](CCCCN)C(=O)N[C@@H](CC(C)C)C(=O)N[C@@H](C)C(=O)N[C@@H](CCCCN)C(N)=O,Klebsiella pneumoniae,broth microdilution,ATCC 700603,"18 h, 37 °C, compound alone",MIC,> 80 µM
CN(C)c1cc(NC(=O)CNC(C)(C)C)c(O)c2c1C[C@H]1C[C@H]3[C@H](N(C)C)C(O)=C(C(N)=O)C(=O)[C@@]3(O)C(O)=C1C2=O,Klebsiella pneumoniae,broth microdilution,KPC-100 producing,,MIC,2 µg/mL
CN(C)[C@@H]1C(O)=C(C(N)=O)C(=O)[C@@]2(O)C(O)=C3C(=O)c4c(O)cnc(F)c4C[C@H]3C[C@@H]12.Cl,Klebsiella pneumoniae,,tet(A)-carrying,,MIC,> 32 µg/mL
CC[C@H](C)[C@H](NC(=O)[C@H](C)NC(=O)[C@H](CCCCN)NC(=O)[C@H](CCCNC(=N)N)NC(=O)[C@H](CCCCN)NC(=O)[C@H](CCCNC(=N)N)NC(=O)[C@H](CCCCN)NC(=O)[C@@H](N)CCCNC(=N)N)C(=O)N[C@@H](CO)C(=O)NCC(=O)N[C@@H](CO)C(=O)N[C@@H](CC(C)C)C(=O)N[C@H](C(=O)N[C@H](C(=O)N[C@@H](CC(C)C)C(=O)N[C@@H](Cc1ccccc1)C(=O)NCC(=O)N[C@@H](Cc1ccc(O)cc1)C(N)=O)[C@@H](C)O)C(C)C,Klebsiella pneumoniae,broth microdilution,ATCC 13883,highest value reported,MIC,16 µM
CC(N)C(O)CCCCCCCCCCCCCCC(=O)CCCCCCCC(O)C(C)N (stereo not drawn),Klebsiella pneumoniae,resazurin,,,MIC,23.8 µM

# Excerpt of the above:
Compound,organism,test,test system,conditions,quantity,result
CC[C@H](C)[C@H](N)C(=O)N[C@@H](CC(C)C)C(=O)NCC(=O)N[C@H](CCCCN)C(=O)N[C@H](C(=O)N[C@@H](Cc1c[nH]c2ccccc12)C(=O)N[C@@H](CCCCN)C(=O)NCC(=O)N[C@H](C(=O)N[C@@H](CCCCN)C(=O)N[C@@H](CC(=O)O)C(=O)N[C@H](C(=O)N[C@@H](CC(C)C)C(N)=O)[C@@H](C)CC)[C@@H](C)CC)[C@@H](C)CC,Klebsiella pneumoniae,broth microdilution,"ATCC 27736, Mueller-Hinton broth","16 h, 37 °C",MIC,100 µM
